Measured values of several laboratories.
Protocols differ between the studies behind these lines. ± gives the spread as reported.
Tln1: Tln1 309-405 (Mus musculus, UniProt P26039)
Sequence of UniProt P26039 (whole entry, looked up): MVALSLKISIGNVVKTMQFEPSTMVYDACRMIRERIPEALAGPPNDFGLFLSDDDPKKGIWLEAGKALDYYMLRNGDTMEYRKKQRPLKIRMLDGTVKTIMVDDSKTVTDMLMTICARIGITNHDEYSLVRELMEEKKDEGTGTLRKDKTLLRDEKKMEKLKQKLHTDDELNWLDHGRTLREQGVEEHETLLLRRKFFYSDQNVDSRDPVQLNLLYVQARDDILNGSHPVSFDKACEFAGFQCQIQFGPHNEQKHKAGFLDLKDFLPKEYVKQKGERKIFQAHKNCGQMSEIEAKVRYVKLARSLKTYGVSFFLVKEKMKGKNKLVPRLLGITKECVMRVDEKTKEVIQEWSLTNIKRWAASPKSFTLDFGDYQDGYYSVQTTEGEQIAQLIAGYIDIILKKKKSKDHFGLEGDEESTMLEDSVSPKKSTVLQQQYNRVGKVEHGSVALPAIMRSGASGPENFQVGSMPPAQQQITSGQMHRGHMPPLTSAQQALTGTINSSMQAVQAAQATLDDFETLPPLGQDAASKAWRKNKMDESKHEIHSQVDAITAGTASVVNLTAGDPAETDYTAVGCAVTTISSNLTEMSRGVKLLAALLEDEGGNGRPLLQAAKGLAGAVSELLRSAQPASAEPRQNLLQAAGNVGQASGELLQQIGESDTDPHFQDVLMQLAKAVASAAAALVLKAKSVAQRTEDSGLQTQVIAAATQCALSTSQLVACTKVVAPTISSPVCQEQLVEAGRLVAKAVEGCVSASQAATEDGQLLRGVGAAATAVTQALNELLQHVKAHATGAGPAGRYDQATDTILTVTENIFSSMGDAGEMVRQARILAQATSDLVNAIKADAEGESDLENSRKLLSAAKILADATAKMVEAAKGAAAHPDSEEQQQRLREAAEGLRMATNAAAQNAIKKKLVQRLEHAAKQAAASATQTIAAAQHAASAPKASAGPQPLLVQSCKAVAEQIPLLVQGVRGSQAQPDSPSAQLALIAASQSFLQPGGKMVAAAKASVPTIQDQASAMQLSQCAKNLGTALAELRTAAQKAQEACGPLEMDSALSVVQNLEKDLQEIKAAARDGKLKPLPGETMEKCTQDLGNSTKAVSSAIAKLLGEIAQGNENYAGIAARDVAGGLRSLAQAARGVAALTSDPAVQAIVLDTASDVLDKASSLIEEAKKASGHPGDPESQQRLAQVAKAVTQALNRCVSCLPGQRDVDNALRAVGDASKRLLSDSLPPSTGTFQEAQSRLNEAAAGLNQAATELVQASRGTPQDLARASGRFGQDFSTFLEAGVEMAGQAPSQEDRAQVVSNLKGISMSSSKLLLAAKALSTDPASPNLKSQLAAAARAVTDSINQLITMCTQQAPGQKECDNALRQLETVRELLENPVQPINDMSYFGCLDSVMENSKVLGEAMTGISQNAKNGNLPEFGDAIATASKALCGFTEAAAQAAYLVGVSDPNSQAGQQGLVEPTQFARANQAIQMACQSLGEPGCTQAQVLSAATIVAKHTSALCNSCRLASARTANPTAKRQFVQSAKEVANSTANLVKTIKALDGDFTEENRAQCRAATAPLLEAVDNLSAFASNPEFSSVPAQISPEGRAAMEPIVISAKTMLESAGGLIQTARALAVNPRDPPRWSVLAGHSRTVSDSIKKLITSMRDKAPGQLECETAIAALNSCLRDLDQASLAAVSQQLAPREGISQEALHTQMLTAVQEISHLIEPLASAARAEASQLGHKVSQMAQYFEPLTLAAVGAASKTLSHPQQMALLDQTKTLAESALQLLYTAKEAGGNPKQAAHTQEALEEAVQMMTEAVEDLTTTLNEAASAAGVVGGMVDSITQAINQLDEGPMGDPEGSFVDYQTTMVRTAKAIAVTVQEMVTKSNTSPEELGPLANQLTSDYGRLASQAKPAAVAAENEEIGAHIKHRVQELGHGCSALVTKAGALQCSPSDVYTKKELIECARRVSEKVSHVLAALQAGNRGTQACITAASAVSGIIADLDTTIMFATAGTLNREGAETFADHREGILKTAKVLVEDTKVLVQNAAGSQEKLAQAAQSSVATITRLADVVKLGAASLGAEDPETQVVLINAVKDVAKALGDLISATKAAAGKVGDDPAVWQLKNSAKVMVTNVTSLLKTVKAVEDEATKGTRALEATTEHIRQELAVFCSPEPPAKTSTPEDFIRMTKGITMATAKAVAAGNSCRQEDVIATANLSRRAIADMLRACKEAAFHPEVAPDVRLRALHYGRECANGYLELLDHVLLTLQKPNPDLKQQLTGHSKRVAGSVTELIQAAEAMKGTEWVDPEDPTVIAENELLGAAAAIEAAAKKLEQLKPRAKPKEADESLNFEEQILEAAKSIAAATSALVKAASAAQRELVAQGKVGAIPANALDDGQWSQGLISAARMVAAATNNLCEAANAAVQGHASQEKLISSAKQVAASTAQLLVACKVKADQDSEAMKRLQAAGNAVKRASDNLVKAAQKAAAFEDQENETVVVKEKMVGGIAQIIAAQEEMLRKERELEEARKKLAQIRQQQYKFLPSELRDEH
B1: protein F105A (Arabidopsis thaliana, UniProt Q9LYC2); sequence looked up; chain MTMLRVRSRDGLERVSVDGPHITVSQLKTLIQDQLQIPIHNQTLSTNRNLLLAKSPSDFLAFTDMADPNLRISSLNLAHGSMVYLAYEGERTIRGGPAVTPAGSAGRKMTVEDLIARQMRVGRQEKAHCDSVSFDRDCANAFQHFVNESLAFAVKRGGFMYGNVSEDGQVEVNFIYEPPQQGMEDNLILMRDSEEEKRVDAIALGLGMRRVGFIFNQTVTQDKKEYTLSNVEVLLAAQLHAESELKEWVTAVVKLEINEDGGADVHFEPFQMSDMCVRLFKEGWFETEIGPEDDPKLSKLKKEVVVGVKDVKEVDNDFFLVLVKILDHQGPLSCTFPIENRNTQTTMRALKTHMERARSLPFVKRISDFHLLLFVAQFLDVSSDVPALAECVRLQSHVPEGYELLIDSMANTS
B2: Kcnh1 7-136 (Mus musculus, UniProt Q60603); sequence looked up; chain RRGLVAPQNTFLENIVRRSNDTNFVLGNAQIVDWPIVYSNDGFCKLSGYHRAEVMQKSSACSFMYGELTDKDTVEKVRQTFENYEMNSFEILMYKKNRTPVWFFVKIAPIRNEQDKVVLFLCTFSDITAF
B3: LLGL2 13-978 (Homo sapiens, UniProt Q6P1M3); Hilyte488 N-terminal label; chain RERLKRDLFQFNKTVEHGFPHQPSALGYSPSLRILAIGTRSGAIKLYGAPGVEFMGLHQENNAVTQIHLLPGQCQLVTLLDDNSLHLWSLKVKGGASELQEDESFTLRGPPGAAPSATQITVVLPHSSCELLYLGTESGNVFVVQLPAFRALEDRTISSDAVLQRLPEEARHRRVFEMVEALQEHPRDPNQILIGYSRGLVVIWDLQGSRVLYHFLSSQQLENIWWQRDGRLLVSCHSDGSYCQWPVSSEAQQPEPLRSLVPYGPFPCKAITRILWLTTRQGLPFTIFQGGMPRASYGDRHCISVIHDGQQTAFDFTSRVIGFTVLTEADPAATFDDPYALVVLAEEELVVIDLQTAGWPPVQLPYLASLHCSAITCSHHVSNIPLKLWERIIAAGSRQNAHFSTMEWPIDGGTSLTPAPPQRDLLLTGHEDGTVRFWDASGVCLRLLYKLSTVRVFLTDTDPNENFSAQGEDEWPPLRKVGSFDPYSDDPRLGIQKIFLCKYSGYLAVAGTAGQVLVLELNDEAAEQAVEQVEADLLQDQEGYRWKGHERLAARSGPVRFEPGFQPFVLVQCQPPAVVTSLALHSEWRLVAFGTSHGFGLFDHQQRRQVFVKCTLHPSDQLALEGPLSRVKSLKKSLRQSFRRMRRSRVSSRKRHPAGPPGEAQEGSAKAERPGLQNMELAPVQRKIEARSAEDSFTGFVRTLYFADTYLKDSSRHCPSLWAGTNGGTIYAFSLRVPPAERRMDEPVRAEQAKEIQLMHRAPVVGILVLDGHSVPLPEPLEVAHDLSKSPDMQGSHQLLVVSEEQFKVFTLPKVSAKLKLKLTALEGSRVRRVSVAHFGSRRAEDYGEHHLAVLTNLGDIQVVSLPLLKPQVRYSCIRREDVSGIASCVFTKYGQGFYLISPSEFERFSLSTKWLVEPRCLVDSAETKNHRPGNGAGPKKAPSRARNSGTQSDGEEKQPGLVMER
B4: PUX6 269-435 (Arabidopsis thaliana, UniProt F4IXN6); chain VTYTVTIWRNGFTVDDDPFKSLDDPENAAFLEYMPEDNKFGVPTTTRSTSCSSQTHQELQTLAGSESTSTEPPLTTTQPPSMSSLVVDPAAPTTSIQLILADSTRIVTQFNTHHTIRDIRCFIDTSRPDGSKDYQLLIMGSPPTPLSDFDQTIEKAGIANSVLVQKF
B5: SSC3 substrate-binding domain 415-644 (Saccharomyces cerevisiae); chain TPLSLGIETLGGVFTKLIPRNSTIPNKKSQIFSTAASGQTSVEVKVFQGERELVKDNKLIGNFTLAGIPPAPKGTPQIEVTFDIDANGIINVSAKDLASHKDSSITVAGASGLSDTEIDRMVNEAERYKNQDRARRNAIETANKADQLANDTENSIKEFEGKLDKTDSQRLKDQISSLRELVSRSQAGDEVNDDDVGTKIDNLRTSSMKLFEQLYKNSDNPETKNGRENK
B6: RSPO4 32-137 Q65R (Homo sapiens, UniProt Q2I0M5); chain GGNCTGCIICSEENGCSTCQQRLFLFIRREGIRRYGKCLHDCPPGYFGIRGQEVNRCKKCGATCESCFSQDFCIRCKRQFYLYKGKCLPTCPPGTLAHQNTRECQGGGGGSGGGGSGGGGS
B7: designed binder (Homo sapiens); chain APTSSSTKKTQLQLEHLLLDLQMILNGINNYKNPKLTRMLTFKFYMPKKATELKHLQCLEEELKPLEEVLNLAQSKNFHFDPRDVVSNINVFVLELKGSETTFMCEYADETATIVEFLNRWITFCQSIISTLT
B8: BRAF kinase 448-723 K723G/P722S/S720E/L716E/S713E/Q709R/L706S/A688R/Y673S/I666R/K630S/V600E/L588N/Q562R (Homo sapiens, UniProt P15056); sequence looked up; chain DDWEIPDGQITVGQRIGSGSFGTVYKGKWHGDVAVKMLNVTAPTPQQLQAFKNEVGVLRKTRHVNILLFMGYSTKPQLAIVTQWCEGSSLYHHLHASETKFEMKKLIDIARQTARGMDYLHAKSIIHRDLKSNNIFLHEDNTVKIGDFGLATEKSRWSGSHQFEQLSGSILWMAPEVIRMQDSNPYSFQSDVYAFGIVLYELMTGQLPYSNINNRDQIRFMVGRGSLSPDLSKVRSNCPKRMKRLMAECLKKKRDERPSFPRILAEIEELARELSG
B9: DTNA 458-564 (Homo sapiens, UniProt Q9Y4J8-1); sequence looked up; chain SAPDISFTIDANKQQRQLIAELENKNREILQEIQRLRLEHEQASQPTPEKAQQNPTLLAELRLLRQRKDELEQRMSALQESRRELMVQLEGLMKLLKTQGAGSPRSS
B10: Cacna1c 1647-1777 (Mus musculus, UniProt Q01815); sequence looked up; chain NALSLQAGLRTLHDIGPEIRRAISGDLTAEEELDKAMKEAVSAASEDDIFRRAGGLFGNHVTYYQSDSRGNFPQTFATQRPLHINKTGNNQADTESPSHEKLVDSTFTPSSYSSTGSNANINNANNTALGR
B11: CFH domains 1108-1231 V1197A (Homo sapiens, UniProt P08603); sequence looked up; chain KCGPPPPIDNGDITSFPLSVYAPASSVEYQCQNLYQLEGNKRITCRNGQWSEPPKCLHPCVISREIMENYNIALRWTAKQKLYSRTGESAEFVCKRGYRLSSRSHTLRTTCWDGKLEYPTCAKR
B12: scFv; chain EVQLVQSGAGVKKPGSSVKVSCKSSGGTSGSSAVSWIRQAPGQGVEWMGGITSIFGPANYAQKFQDRLKITADKATNTVYMELSGLTFEDTAVYYCARVGDYNFWNGHYRSGYYFDLWGRGTLVTVSSGGGGSGGGGSGGGGSAQSVLTQPPSASGTPGQRVTISCSGSSSNIGSNTVNWYQQLPGTAPKLLIYSNTQRPSGVPDRFSGSKSATSASLAISGLQSEDEADYYCAAWDDSLNGHVVFGGGTKVTVLG
B13: ERN1 32-440 (Homo sapiens, UniProt O75460); chain LLFVSTLDGSLHAVSKRTGSIKWTLKEDPVLQVPTHVEEPAFLPDPNDGSLYTLGSKNNEGLTKLPFTIPELVQASPCRSSDGILYMGKKQDIWYVIDLLTGEKQQTLSSAFADSLCPSTSLLYLGRTEYTITMYDTKTRELRWNATYFDYAASLPEDDVDYKMSHFVSNGDGLVVTVDSESGDVLWIQNYASPVVAFYVWQREGLRKVMHINVAVETLRYLTFMSGEVGRITKWKYPFPKETEAKSKLTPTLYVGKYSTSLYASPSMVHEGVAVVPRGSTLPLLEGPQTDGVTIGDKGECVITPSTDVKFDPGLKSKNKLNYLRNYWLLIGHHETPLSASTKMLERFPNNLPKHRENVIPADSEKKSFEEVINLVDQTSENAPTTVSRDVEEKPAHAPARPEAPVDSM
Sequence of UniProt P54609 (whole entry, looked up): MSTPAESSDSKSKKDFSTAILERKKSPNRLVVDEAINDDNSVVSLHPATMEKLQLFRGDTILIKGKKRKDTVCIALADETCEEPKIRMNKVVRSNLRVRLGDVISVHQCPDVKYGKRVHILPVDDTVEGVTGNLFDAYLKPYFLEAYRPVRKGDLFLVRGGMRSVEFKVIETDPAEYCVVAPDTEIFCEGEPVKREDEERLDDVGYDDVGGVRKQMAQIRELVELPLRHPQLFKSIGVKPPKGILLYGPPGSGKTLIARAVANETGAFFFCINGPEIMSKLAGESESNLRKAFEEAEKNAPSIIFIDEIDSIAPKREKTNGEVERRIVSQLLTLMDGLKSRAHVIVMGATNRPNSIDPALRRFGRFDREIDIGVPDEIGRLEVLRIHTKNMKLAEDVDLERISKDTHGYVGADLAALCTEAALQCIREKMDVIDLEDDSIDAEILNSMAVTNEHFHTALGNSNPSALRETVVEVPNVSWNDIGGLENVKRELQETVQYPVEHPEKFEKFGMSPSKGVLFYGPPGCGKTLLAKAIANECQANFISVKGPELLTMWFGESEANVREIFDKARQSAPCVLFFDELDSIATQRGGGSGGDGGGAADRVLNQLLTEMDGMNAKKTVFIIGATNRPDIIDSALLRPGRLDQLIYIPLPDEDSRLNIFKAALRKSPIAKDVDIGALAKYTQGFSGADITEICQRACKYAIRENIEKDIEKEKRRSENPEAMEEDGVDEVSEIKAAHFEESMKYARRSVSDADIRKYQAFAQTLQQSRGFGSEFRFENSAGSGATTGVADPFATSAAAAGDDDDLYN
Sequence of UniProt P01024 (whole entry, looked up): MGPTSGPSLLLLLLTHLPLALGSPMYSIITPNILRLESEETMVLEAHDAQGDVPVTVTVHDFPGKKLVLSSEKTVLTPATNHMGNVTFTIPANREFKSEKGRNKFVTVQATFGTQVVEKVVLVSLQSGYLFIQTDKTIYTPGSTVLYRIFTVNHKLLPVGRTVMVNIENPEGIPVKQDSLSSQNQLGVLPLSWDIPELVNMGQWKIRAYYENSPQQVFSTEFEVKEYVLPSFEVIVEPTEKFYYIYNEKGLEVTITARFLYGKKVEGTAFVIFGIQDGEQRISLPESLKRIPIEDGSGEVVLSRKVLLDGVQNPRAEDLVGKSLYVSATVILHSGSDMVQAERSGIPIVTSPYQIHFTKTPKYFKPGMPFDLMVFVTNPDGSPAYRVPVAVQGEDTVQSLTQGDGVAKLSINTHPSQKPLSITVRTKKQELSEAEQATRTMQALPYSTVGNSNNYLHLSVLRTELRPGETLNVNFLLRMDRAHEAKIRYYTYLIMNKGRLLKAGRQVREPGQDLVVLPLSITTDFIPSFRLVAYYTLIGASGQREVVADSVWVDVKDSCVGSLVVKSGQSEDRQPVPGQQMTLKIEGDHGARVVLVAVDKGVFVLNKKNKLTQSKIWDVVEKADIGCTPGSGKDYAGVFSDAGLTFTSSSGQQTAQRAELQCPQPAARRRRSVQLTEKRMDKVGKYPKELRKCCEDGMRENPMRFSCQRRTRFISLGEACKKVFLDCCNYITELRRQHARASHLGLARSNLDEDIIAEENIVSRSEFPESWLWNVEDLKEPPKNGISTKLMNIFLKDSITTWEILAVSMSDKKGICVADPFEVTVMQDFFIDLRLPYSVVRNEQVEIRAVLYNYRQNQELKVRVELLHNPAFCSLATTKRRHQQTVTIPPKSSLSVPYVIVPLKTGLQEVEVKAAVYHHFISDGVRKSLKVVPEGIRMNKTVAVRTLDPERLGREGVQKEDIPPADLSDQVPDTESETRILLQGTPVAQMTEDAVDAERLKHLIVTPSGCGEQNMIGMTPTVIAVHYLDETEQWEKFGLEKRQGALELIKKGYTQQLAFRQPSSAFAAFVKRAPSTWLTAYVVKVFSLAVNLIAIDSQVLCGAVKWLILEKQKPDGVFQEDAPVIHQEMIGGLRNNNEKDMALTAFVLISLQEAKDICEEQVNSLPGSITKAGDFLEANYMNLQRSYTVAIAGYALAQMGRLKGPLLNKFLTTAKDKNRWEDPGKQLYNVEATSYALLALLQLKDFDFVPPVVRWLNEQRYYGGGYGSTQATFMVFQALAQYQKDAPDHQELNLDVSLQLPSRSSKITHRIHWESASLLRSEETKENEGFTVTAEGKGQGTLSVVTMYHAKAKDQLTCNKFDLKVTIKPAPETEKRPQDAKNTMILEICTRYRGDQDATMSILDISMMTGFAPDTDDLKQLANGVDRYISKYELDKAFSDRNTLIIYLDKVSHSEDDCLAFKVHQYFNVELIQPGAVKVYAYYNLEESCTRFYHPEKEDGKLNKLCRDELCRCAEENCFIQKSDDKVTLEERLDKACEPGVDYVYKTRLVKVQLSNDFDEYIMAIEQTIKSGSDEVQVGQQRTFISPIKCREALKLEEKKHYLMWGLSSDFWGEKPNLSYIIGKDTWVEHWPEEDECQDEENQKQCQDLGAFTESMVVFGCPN

| Substance | partner | assay | system | conditions | Kd [nM] |
| --- | --- | --- | --- | --- | --- |
| B1 (protein F105A) | CDC48A (Arabidopsis thaliana, UniProt P54609) | ITC | – | added: AMPPNP | 3900 |
| KLLMIIHDRREFAKFEKEKMNAKWDTGENPIYKSAVTTVVNPKYEGK (ITGB1 752-798 (Homo sapiens, UniProt P05556-1); sequence looked up) | Tln1 | NMR titration | – | – | 491000 |
| GRGRGRGRGRGRGRGRGRGRGRGRGRGRGRGRGRGRGRGR ((GR)20 20 repeats; TAMRA label N-terminal) | FUS 215-526 (Homo sapiens, UniProt P35637) | fluorescence polarisation | peptide | – | 54.8 ± 9.9 |
| DDRHRIEEKRKRTYETFKSIMKKSPFNGP (Rela 293-321 (Mus musculus, UniProt Q04207); sequence looked up) | NFKBIA 67-206 (Homo sapiens, UniProt P25963) | ITC | peptide | NaCl 150 mM | 746 ± 16 |
| B2 (Kcnh1 7-136) | Kcnh1 552-708 (Mus musculus, UniProt Q60603) | SPR | – | 25 °C, two-state model, added: chlorpromazine 10 µM | 1800 |
| GSGVTQTTKCCYSLEFHQ (designed peptide) | ERBB2 23-652 (Homo sapiens, UniProt P04626) | fluorescence titration | peptide | apparent | 120 ± 15 |
| PUX5 fragment F304A/L311A (Arabidopsis thaliana) | CDC48A 1-463 (Arabidopsis thaliana, UniProt P54609) | ITC | – | 25 °C | 2100 ± 200 |
| TGFBR2 extracellular domain/anti-EGFR IgG1 fusion bifunctional fusion (Homo sapiens) | FCGR3A V176F | SPR | – | – | 1250 ± 170 |
| SCN2A IQ region I1911V (Homo sapiens) (sequence not shown) | CALM1 (Homo sapiens, UniProt P0DP23) | fluorescence titration | – | added: CaCl2 | 22.1 |
| B3 (LLGL2 13-978) | PRKCI/PARD6B 1-596, activation loop phosphorylated | fluorescence polarisation | – | added: AMP-PNP | 9.7 |
| B4 (PUX6 269-435) | CDC48A 1-463 (Arabidopsis thaliana, UniProt P54609) | ITC | – | 10 °C | 9500 ± 900 |
| B5 | GOT2 mitochondrial targeting sequence, fluorescein label on cysteine (Gallus gallus) | fluorescence polarization | – | – | 26900 ± 2640 |
| KLLMIIHDRREFAKFEKEKMNAKWDTGENPLYKSAVTTVVNPKYEGK (ITGB1 752-798 I782L (Homo sapiens, UniProt P05556-1); sequence looked up) | Tln1 | NMR titration | – | – | 556000 |
| F9 heavy and light chains, activated (UniProt P00740) | F8 activated, A1/A2/A3-C1-C2 R336Q/R562Q (Homo sapiens) | FXa generation, factor Xa generation rate | – | added: FX | 1.5 |
| GCVRLHESCLGQQVPCCDPAATCYCTGRGDEKLRCYCR (designed peptide AgRP scaffold) | ITGAV/ITGB3 K562 cells | flow cytometry | designed binder, U87MG | – | 15 |
| ALLLSAPRR (P5 peptide; fluorescein label) | SSC1 mature P486S (Saccharomyces cerevisiae) | fluorescence polarization | peptide | 25 nM | 210 |

| Substance | partner | assay | system | conditions | Kd [nM] |
| --- | --- | --- | --- | --- | --- |
| B6 (RSPO4 32-137 Q65R) | LGR6 (Homo sapiens, UniProt Q9HBX8) | whole-cell binding saturation | Fc fusion, HEK293T | – | 0.8 |
| GRGDLGRLKK (TGFB3 260-269; aminocaproic acid, FITC label) | ITGAV/ITGB8 ectodomain, soluble, clasped | fluorescence polarisation | peptide | – | 12.5 |
| F2 thrombin S195A | thrombin mature | BLI | – | – | 770 ± 170 |
| B7 (designed binder) | IL2RA (UniProt P01589) | BLI | designed binder | – | 56 ± 9 |
| B8 | MAP2K1 (Homo sapiens, UniProt Q02750) | BLI | – | – | 986 ± 133 |
| B9 (DTNA 458-564) | DMD 3365-3685 (Homo sapiens, UniProt P11532-1) | ITC | – | – | 980 |
| dcap-1 (Caenorhabditis elegans, UniProt Q9N363) | UFD-3, fluorescent RED-NHS label (Caenorhabditis elegans, UniProt G5EES6) | MST | – | – | 75.6 |
| B10 (Cacna1c 1647-1777) | Jph2 1-440 S165H (Mus musculus, UniProt Q9ET78) | ITC | – | – | 7320 |
| ABL1 fragment (Homo sapiens) | CRK 245-259, pY251 (Homo sapiens) | ITC | – | – | 85500 |
| PKLPPKTYKREH (SOS1 proline-rich peptide, 1303-1314) | GRB2 156-215 (Homo sapiens, UniProt P62993) | NMR titration | peptide | – | 156000 |
| B11 (CFH domains 1108-1231 V1197A) | C3 C3dg 955-1303 (Homo sapiens, UniProt P01024) | SPR | – | – | 4400 ± 300 |
| B12 (scFv) | SIK3 59-385 (Homo sapiens, UniProt Q9Y2K2) | SPR | scFv | – | < 1000 |
| TIMP1 (Homo sapiens, UniProt P01033) | MMP9 (Homo sapiens, UniProt P14780) | BLI | – | – | 59 |
| ENAH EVH1 domain (Homo sapiens) | RARA peptide (Homo sapiens) | BLI | – | – | > 150000 |
| B13 (ERN1 32-440) | HSPA5 28-654 (Homo sapiens, UniProt P11021) | MST | – | – | 660 ± 120 |
| FGB dimer (Homo sapiens) | CDH2 EC3-EC5 217-551 (Homo sapiens) | SPR | – | Langmuir fit, added: CaCl2 | 27.2 |
